{"data": "Assay results from different studies", "note": "Numbered parts are unrelated; each lists some results of a single study. Changes are numbered by the printed parent chain."}
{"data": "Set 1", "target": "CCNA1, cyclin fold, Cln2 fusion (human)", "method": "yeast growth competition, sequencing", "medium": "yeast", "setting": "weak parent motif", "relative to": "not given", "reading": "higher = stronger binding", "starting sequence": "E2F7 docking peptide (human); SSAQRRLEIPSGG"}
{"Variant": "SSAQRRLEFPSGG [I9F]", "normalised enrichment score": 0.711}
{"Variant": "SSAQRRLAIPSGG [E8A]", "normalised enrichment score": 0.336}
{"Variant": "SSAQRRLEAPSGG [I9A]", "normalised enrichment score": 0.238}
{"Variant": "SSAQKRLELPSGG [R5K I9L]", "normalised enrichment score": 0.0925}
{"Variant": "SSAQRRLEIPSGA [G13A]", "normalised enrichment score": 0.478}
{"Variant": "SAAQRRLEIPSGG [S2A]", "normalised enrichment score": 0.124}
{"Variant": "ASAQRRLEIPSGG [S1A]", "normalised enrichment score": 0.345}
{"Variant": "SSAQARLEIPSGG [R5A]", "normalised enrichment score": 0.478}
{"data": "Set 2", "target": "RNA binding protein fox-1 homolog 2, RRM domain, GST-SBP tag (RBFOX2, Homo sapiens, UniProt O43251-10, residues 100-194)", "method": "RNA Bind-n-Seq", "form": "RNA", "medium": "in vitro", "tested at": "365 nM", "setting": "natural RNA segment, single round, ends assumed", "relative to": "no-protein control", "reading": "higher = stronger binding", "Residues (chain)": "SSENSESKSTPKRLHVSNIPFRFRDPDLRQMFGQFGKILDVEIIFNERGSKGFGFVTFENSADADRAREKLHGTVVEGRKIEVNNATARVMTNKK"}
{"Oligonucleotide": "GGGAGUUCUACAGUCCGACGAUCACCAUCCCCGGGGCCAGCCGGGACGUUGUCGGUUUAUUUCUGUAAAUAGAAACCAGCAAGUGUAUACUGUGAUUUAUUUUAAUGUAUUCUUAAGGACAGAAUGGAAAUUCUGGAAUUCUCGGGUGCCAA", "RBNS enrichment (R)": 1.1}
{"Oligonucleotide": "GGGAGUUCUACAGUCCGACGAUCGAUUUCAAGAAAGCCUCUUCUUGUUGCCUAGCUGAGUGGGAGAGUCAUUUUCCCCAGACACUACAUUUGGAUACAGGUGCCAAAGAACAUUAUUAAGGAAUUAUUUAGAAUGGAAUUCUCGGGUGCCAA", "RBNS enrichment (R)": 0.456}
{"Oligonucleotide": "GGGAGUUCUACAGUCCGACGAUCUGCAGCAUCCCACCAUCCUCCAGACAGACCACCUGACCCCUUCUCAACUCUGUAACAUGGACGCAACCUCAACCCGGCGCAGUUACAACUUCACUGUCAGUGGAAGGGGAUGGAAUUCUCGGGUGCCAA", "RBNS enrichment (R)": 0.365}
{"Oligonucleotide": "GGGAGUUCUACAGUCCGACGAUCAUUUUAAGUUUGCCUUAUCAGAUAUCUGAGCUGUGCGACAAGUAAGUAGCUCUGGGGCCAUGUCUUGACUGGCUCCUAAUGGUGACUCCAGGCCAGCACUUGGUCAUUUGUGGAAUUCUCGGGUGCCAA", "RBNS enrichment (R)": 0.263}
{"Oligonucleotide": "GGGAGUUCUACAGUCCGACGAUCGAUUUUUUUUUAUUAUUUCAUAAGAAAACUACGUUAAUUUUACCUUACUUUCAUUGUAAAUAAGCCUGUCUUCCUAUCUGGAUUUUUUGUGUGCAUACAUAUUCUACUGAUGGAAUUCUCGGGUGCCAA", "RBNS enrichment (R)": 1}
{"Oligonucleotide": "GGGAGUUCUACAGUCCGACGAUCCUGUCUCCAGGAAAACAAAGCAAACAAGGAUACCUAUGGAGACACGCUAAGAAGGAAUUACGCGAAUCGGCUCAAAAGUUAUGGUGGCCAAGAAGUGAUACAGGGUGUCAUGGAAUUCUCGGGUGCCAA", "RBNS enrichment (R)": 0.41}
{"Oligonucleotide": "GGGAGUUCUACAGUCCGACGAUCCCCCUUGCAGCUGUUGGAAUCUCUGCAAGAACCUCUGUAUUCUUCUAAUAAAUUCCCUCUUUUAUUUAAACUAGUUUGACUGGUUUCUGUUCCAUGCAACCAAAUGGUCCUGGAAUUCUCGGGUGCCAA", "RBNS enrichment (R)": 0.986}
{"Oligonucleotide": "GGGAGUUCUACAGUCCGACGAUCUUUGUAUAUCUCCAGGCAAGGUGAAGGGUACCCUUCGGACCCGCCUCAUAAACCAUCUCUGCAUCACCAUGAACCCAGACUAGCUGUGGUGCCAGAAACCUGAACUUAAAUGGAAUUCUCGGGUGCCAA", "RBNS enrichment (R)": 0.497}
{"data": "Set 3", "target": "Sal-like protein 4, full length isoform B (SALL4, Homo sapiens, UniProt Q9UJQ4-2, residues 1-616)", "method": "universal PBM", "form": "double-stranded DNA, one strand shown", "medium": "in vitro", "tested at": "not given", "setting": "8-mer, flanks averaged, mean of replicates", "reading": "higher = stronger binding", "Residues (chain)": "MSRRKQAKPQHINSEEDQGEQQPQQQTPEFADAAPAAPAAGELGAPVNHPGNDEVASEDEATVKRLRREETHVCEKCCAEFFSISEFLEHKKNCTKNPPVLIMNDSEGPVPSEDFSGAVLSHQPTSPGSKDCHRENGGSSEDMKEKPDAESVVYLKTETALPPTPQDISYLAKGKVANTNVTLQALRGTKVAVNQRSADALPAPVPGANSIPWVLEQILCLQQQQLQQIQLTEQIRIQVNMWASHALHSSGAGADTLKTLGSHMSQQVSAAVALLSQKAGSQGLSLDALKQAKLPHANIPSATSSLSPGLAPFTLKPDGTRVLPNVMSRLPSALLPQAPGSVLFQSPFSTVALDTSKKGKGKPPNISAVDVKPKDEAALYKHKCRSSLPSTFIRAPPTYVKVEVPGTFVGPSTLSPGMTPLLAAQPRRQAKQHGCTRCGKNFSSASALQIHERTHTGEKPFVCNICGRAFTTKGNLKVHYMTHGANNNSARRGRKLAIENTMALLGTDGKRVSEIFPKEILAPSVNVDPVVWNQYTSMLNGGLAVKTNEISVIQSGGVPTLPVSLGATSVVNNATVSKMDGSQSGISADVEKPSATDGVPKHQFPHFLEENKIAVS"}
{"Oligonucleotide": "AACACTGC", "E-score": -0.053}
{"Oligonucleotide": "ACTAGCTC", "E-score": -0.0625}
{"Oligonucleotide": "ACTAGAAG", "E-score": -0.0507}
{"Oligonucleotide": "GAATACTA", "E-score": 0.245}
{"Oligonucleotide": "CATCCCTA", "E-score": -0.0531}
{"Oligonucleotide": "CAGATATC", "E-score": 0.131}
{"Oligonucleotide": "TCATCACA", "E-score": -0.0356}
{"Oligonucleotide": "AGATTTGC", "E-score": 0.0745}
{"Oligonucleotide": "TTCGCCAA", "E-score": -0.012}
{"Oligonucleotide": "CCTCTCGA", "E-score": -0.173}
{"Oligonucleotide": "GATAGCTA", "E-score": 0.047}
{"Oligonucleotide": "CAAGAAGC", "E-score": 0.056}
{"Oligonucleotide": "AGATGTAT", "E-score": 0.305}
{"Oligonucleotide": "AGGGGCCC", "E-score": -0.374}
{"Oligonucleotide": "CAAAAACA", "E-score": 0.16}
{"Oligonucleotide": "GACCTGGA", "E-score": -0.105}
{"Oligonucleotide": "GACGGTGC", "E-score": -0.253}
{"Oligonucleotide": "CCACTTAG", "E-score": -0.0813}
{"Oligonucleotide": "AGCATCAC", "E-score": -0.249}
{"Oligonucleotide": "CAATTACG", "E-score": 0.196}
{"Oligonucleotide": "TGGGACCA", "E-score": -0.157}
{"Oligonucleotide": "ATTTGACA", "E-score": 0.244}
{"data": "Set 4", "target": "RING finger protein unkempt homolog, zinc fingers 1-6, GST-SBP tag (UNK, Homo sapiens, UniProt Q9C0B0, residues 30-357)", "method": "RNA Bind-n-Seq", "form": "RNA", "medium": "in vitro", "tested at": "not given", "setting": "RNA with constant flanks, human and mouse sites, ends assumed", "relative to": "input RNA pool", "reading": "higher = stronger binding", "chain of UniProt Q9C0B0 (30-357, looked up)": "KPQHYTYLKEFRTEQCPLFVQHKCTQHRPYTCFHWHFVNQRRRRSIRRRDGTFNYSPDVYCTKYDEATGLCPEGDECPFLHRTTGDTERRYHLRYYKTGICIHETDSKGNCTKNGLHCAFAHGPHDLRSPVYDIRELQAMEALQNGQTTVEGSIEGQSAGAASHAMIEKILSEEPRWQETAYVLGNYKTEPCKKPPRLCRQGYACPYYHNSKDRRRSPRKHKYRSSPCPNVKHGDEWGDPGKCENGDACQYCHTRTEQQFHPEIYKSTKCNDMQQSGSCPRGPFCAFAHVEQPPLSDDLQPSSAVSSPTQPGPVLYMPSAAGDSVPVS"}
{"Oligonucleotide": "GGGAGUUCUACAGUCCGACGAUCGCGGAUGAAGUGCAGCGCUUUUUUUCUGACUGCAAAAUUCAAAAUGGGGCUCAAGGUAUUCGUUUCAUCUACACCAGAGAAGGCAGACCAAGUGGCGAGGCUUUUGUUGAACUUGAAUCACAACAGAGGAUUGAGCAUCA", "bound/input enrichment": "0.174 ratio"}
{"Oligonucleotide": "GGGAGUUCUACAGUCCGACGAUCGUGCUAUUAAUAUUAGCUGAAGUAGCAAGCUAAAAGUAGACACUUCAUUUAUCUUUUUAGUAGCAUCCUCUCAACUGUUCCAGAUCCAGUUUUGCAUUUGGUUGUCUGUCUCAGUAGUCUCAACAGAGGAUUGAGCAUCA", "bound/input enrichment": "0.455 ratio"}
{"Oligonucleotide": "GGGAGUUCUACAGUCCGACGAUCUGUCCUUGACUCUUGGGUCUGUGGGCCAUGGCAUGAGUGUUUUCUAGUAGUAGAUUGGAGGGAAAGCUUUGUGACACUUAGUACUGUGUUUUUAAGAAGAAAUAAUUUGGUUCCAGAUGUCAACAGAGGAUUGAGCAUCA", "bound/input enrichment": "1.28 ratio"}
{"Oligonucleotide": "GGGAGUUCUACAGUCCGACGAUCAGUCUCAGGUUGUGUGCCCCUAAAUCAAGAUUUGCUUCCACAGAAGCCAUUACUUGCAAUUUUUUUUUUUUUUCUGAGAAAGUCUCGCUGUGUCACCCAGGCUGGAGUGCAGUGGCGCAACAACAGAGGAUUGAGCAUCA", "bound/input enrichment": "0.685 ratio"}
{"Oligonucleotide": "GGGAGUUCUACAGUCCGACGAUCGGGAUGACAAAAGUAUUCCUUUUUCAGAUGCCCCAAGGAAGCCACCAUGUGGGGCUUCACAUGCUCCAGCCAGGUUGUCCAAGCAGGUGCCGUCCACCACACUGCUGGCUGCUCUUGCACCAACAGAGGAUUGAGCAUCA", "bound/input enrichment": "0.133 ratio"}
{"Oligonucleotide": "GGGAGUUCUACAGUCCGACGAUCGGCCCUUGACCGUGUGGCCUCUGCCUGGCUGUUUGGGGUCCUGCACGGCUUUCCCACCACCUGUAGCUCUUGUUGACCUGCCUGUUCACCUCAUGAGUGAAGCGUCUGCCUGGCAGUGGGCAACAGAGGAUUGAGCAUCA", "bound/input enrichment": "0.358 ratio"}
{"Oligonucleotide": "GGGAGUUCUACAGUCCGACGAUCUUAAGGGAAAUUUUUGAGGCAAAAGGCAAAUGUUUUGGUUCAAACCUAUGAGCAAAGUCAUUUAGAGAAUUGAAGAUAGUAUUAAAACCUUGAGACUCUUGCAAUAAAAAUAUCAGACCACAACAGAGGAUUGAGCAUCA", "bound/input enrichment": "4.09 ratio"}
{"Oligonucleotide": "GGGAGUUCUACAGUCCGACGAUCACAUUCACUGGGAUCUAUACCUUUGAGUCACUUAUAAAGAUCUUGGCCAGAGGAUUCUGCUUAGAAGAUUUCACAUUUCUUCGUGACCCAUGGAACUGGCUGGAUUUCAGUGUCAUCGUGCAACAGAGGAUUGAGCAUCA", "bound/input enrichment": "0.159 ratio"}
{"note": "Some of these lines once more (set 4):"}
{"Oligonucleotide": "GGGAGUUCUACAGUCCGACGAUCGGCCCUUGACCGUGUGGCCUCUGCCUGGCUGUUUGGGGUCCUGCACGGCUUUCCCACCACCUGUAGCUCUUGUUGACCUGCCUGUUCACCUCAUGAGUGAAGCGUCUGCCUGGCAGUGGGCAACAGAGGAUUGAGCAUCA", "bound/input enrichment": "0.358 ratio"}
{"Oligonucleotide": "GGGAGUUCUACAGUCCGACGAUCGGGAUGACAAAAGUAUUCCUUUUUCAGAUGCCCCAAGGAAGCCACCAUGUGGGGCUUCACAUGCUCCAGCCAGGUUGUCCAAGCAGGUGCCGUCCACCACACUGCUGGCUGCUCUUGCACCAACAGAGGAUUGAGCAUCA", "bound/input enrichment": "0.133 ratio"}
{"Oligonucleotide": "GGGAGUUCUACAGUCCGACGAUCAGUCUCAGGUUGUGUGCCCCUAAAUCAAGAUUUGCUUCCACAGAAGCCAUUACUUGCAAUUUUUUUUUUUUUUCUGAGAAAGUCUCGCUGUGUCACCCAGGCUGGAGUGCAGUGGCGCAACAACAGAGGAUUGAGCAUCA", "bound/input enrichment": "0.685 ratio"}
{"Oligonucleotide": "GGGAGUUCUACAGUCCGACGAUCACAUUCACUGGGAUCUAUACCUUUGAGUCACUUAUAAAGAUCUUGGCCAGAGGAUUCUGCUUAGAAGAUUUCACAUUUCUUCGUGACCCAUGGAACUGGCUGGAUUUCAGUGUCAUCGUGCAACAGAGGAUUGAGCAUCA", "bound/input enrichment": "0.159 ratio"}
{"Oligonucleotide": "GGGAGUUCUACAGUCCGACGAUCUGUCCUUGACUCUUGGGUCUGUGGGCCAUGGCAUGAGUGUUUUCUAGUAGUAGAUUGGAGGGAAAGCUUUGUGACACUUAGUACUGUGUUUUUAAGAAGAAAUAAUUUGGUUCCAGAUGUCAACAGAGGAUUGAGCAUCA", "bound/input enrichment": "1.28 ratio"}
{"Oligonucleotide": "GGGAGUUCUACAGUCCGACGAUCGCGGAUGAAGUGCAGCGCUUUUUUUCUGACUGCAAAAUUCAAAAUGGGGCUCAAGGUAUUCGUUUCAUCUACACCAGAGAAGGCAGACCAAGUGGCGAGGCUUUUGUUGAACUUGAAUCACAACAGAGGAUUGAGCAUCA", "bound/input enrichment": "0.174 ratio"}
{"Oligonucleotide": "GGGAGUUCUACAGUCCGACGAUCUUAAGGGAAAUUUUUGAGGCAAAAGGCAAAUGUUUUGGUUCAAACCUAUGAGCAAAGUCAUUUAGAGAAUUGAAGAUAGUAUUAAAACCUUGAGACUCUUGCAAUAAAAAUAUCAGACCACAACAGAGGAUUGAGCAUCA", "bound/input enrichment": "4.09 ratio"}
